Experimental data of several laboratories.
Compare with care: the assays were run in different laboratories. Values joined by “and” are separate records of one study, mostly repeats; a detail may differ. Values after ≈ are worked out from the molar mass of the structure shown.
Organism: Staphylococcus aureus

SMILES	assay	test system	conditions	scale	measurement	value
Cc1c2c(nn1C)CSCc1cc(n(C)n1)CSc1cc(c3ccccc3c1)OCCCc1c(C(=O)O)n(C)c3c-2c(Cl)ccc13	label-free proteomics, measured: pyrB	SA113	concentration not given	relative to: untreated	log2 fold change	-4.66
CN[C@H](CC(C)C)C(=O)N[C@H]1C(=O)N[C@@H](CC(N)=O)C(=O)N[C@H]2C(=O)N[C@H]3C(=O)N[C@H](C(=O)N[C@H](C(=O)O)c4cc(O)cc(O)c4-c4cc3ccc4O)[C@H](O)c3ccc(c(Cl)c3)Oc3cc2cc(c3O[C@@H]2O[C@H](CO)[C@@H](O)[C@H](O)[C@H]2O[C@H]2C[C@](C)(N)[C@H](O)[C@H](C)O2)Oc2ccc(cc2Cl)[C@H]1O	–	MRSA strain 2	–	–	MIC	2 µg/mL (≈ 1.38 µM)
CC[C@H](C)[C@H](NC(=O)[C@H](CCCCN)NC(=O)[C@H](CCCCN)NC(=O)[C@H](Cc1ccccc1)NC(=O)[C@@H](NC(=O)[C@@H](NC(=O)[C@H](CCCNC(=N)N)NC(=O)[C@H](Cc1ccccc1)NC(=O)[C@@H](NC(=O)[C@H](CCCCN)NC(=O)[C@H](CCCCN)NC(=O)[C@@H](N)CCSC)[C@@H](C)CC)C(C)C)[C@@H](C)CC)C(=O)N[C@@H](CC(C)C)C(=O)N[C@@H](CCCCN)C(=O)N[C@@H](CCCNC(=N)N)C(=O)N[C@@H](CC(C)C)C(=O)N[C@H](C(=O)N[C@H](C(=O)O)C(C)C)[C@@H](C)CC	broth microdilution	GU-1 MRSA	10% fetal bovine serum	–	MIC	8 µg/mL (≈ 3.52 µM)
CC(C)C[C@H](NC(=O)CNC(=O)CNC(=O)CNC(=O)[C@H](Cc1ccc(O)cc1)NC(=O)[C@H](CC(C)C)NC(=O)[C@@H](NC(=O)CNC(=O)[C@H](Cc1ccc(O)cc1)NC(=O)[C@H](CCCCN)NC(=O)[C@H](CC(N)=O)NC(=O)[C@@H](NC(=O)[C@H](CCCCN)NC(=O)[C@H](Cc1c[nH]c2ccccc12)NC(=O)CN)[C@@H](C)O)[C@@H](C)O)C(=O)N[C@@H](CCCCN)C(=O)N[C@@H](CCCCN)C(=O)N[C@@H](CC(C)C)C(=O)N[C@@H](CC(C)C)C(=O)N[C@@H](CC(C)C)C(=O)N[C@@H](CC(C)C)C(=O)N[C@@H](CC(C)C)C(=O)N[C@@H](CCCCN)C(=O)N[C@@H](CCCCN)C(=O)N[C@@H](CC(C)C)C(=O)NCC(=O)O	–	ATCC 25923	with: 8 µM ZnCl2	–	MIC	16 µg/mL (≈ 5.59 µM)
OB(O)c1csc2ccccc12	OD600	USA300 fphE::Tn transposon mutant	1 µM	relative to: wild type	growth	68.2% and 87.1% and 79.7% and 86.2% and 66.3% and 81.3%
CN[C@H](CC(C)C)C(=O)N[C@H]1C(=O)N[C@@H](CC(N)=O)C(=O)N[C@H]2C(=O)N[C@H]3C(=O)N[C@H](C(=O)N[C@H](C(=O)O)c4cc(O)cc(O)c4-c4cc3ccc4O)[C@H](O)c3ccc(c(Cl)c3)Oc3cc2cc(c3O[C@@H]2O[C@H](CO)[C@@H](O)[C@H](O)[C@H]2O[C@H]2C[C@](C)(N)[C@H](O)[C@H](C)O2)Oc2ccc(cc2Cl)[C@H]1O	–	CAAS-2019-CAAS-2019-14 clinical blaZ-resistant isolate, 25% plasma	–	–	MBC	4 µg/mL (≈ 2.76 µM)
C=CC[C@@H]1c2ccc(OC)c(OC)c2CN2CCc3cc4c(cc3[C@H]12)OCO4	–	P2rx7 A312V/A312V mice, skin wound infection	dose not given, day 3	relative to: day 0	relative wound size	0.92 and 0.65 and 0.63 and 1.16 and 1.22 and 1.33
CC[C@H](C)[C@H](NC(=O)[C@H](C)NC(=O)[C@H](CCCCN)NC(=O)[C@H](CC(C)C)NC(=O)[C@H](C)NC(=O)[C@@H](NC(=O)[C@H](Cc1c[nH]cn1)NC(=O)[C@H](CC(C)C)NC(=O)[C@@H](NC(=O)[C@@H](NC(=O)[C@H](CCCCN)NC(=O)[C@H](C)NC(=O)[C@H](C)NC(=O)[C@H](CO)NC(=O)[C@H](CCCCN)NC(=O)[C@H](Cc1ccccc1)NC(=O)[C@@H](NC(=O)[C@H](CCCCN)NC(=O)[C@H](CC(C)C)NC(=O)[C@H](Cc1ccccc1)NC(=O)[C@H](CO)NC(=O)[C@H](CCCCN)NC(=O)[C@H](Cc1c[nH]c2ccccc12)NC(=O)[C@H](CCCCN)NC(C)=O)[C@@H](C)O)[C@@H](C)O)C(C)C)[C@@H](C)O)C(=O)N[C@@H](CO)C(=O)N[C@@H](CO)C(N)=O	–	MRSA	130 strains	–	MBC90	32 µg/mL (≈ 10.9 µM)
CO/N=C(\C(=O)N[C@@H]1C(=O)N2C(C(=O)O)=C(CSC(=O)c3ccco3)CS[C@H]12)c1csc(N)n1	–	CAAS-2019-CAAS-2019-09 clinical blaZ-resistant isolate, 25% plasma	–	–	MBC	32 µg/mL
CCCCCCCCCC(=O)N[C@@H](Cc1c[nH]c2ccccc12)C(=O)N[C@H](CC(N)=O)C(=O)N[C@@H](CC(=O)O)C(=O)N[C@@H]1C(=O)NCC(=O)N[C@@H](CCCN)C(=O)N[C@@H](CC(=O)O)C(=O)N[C@H](C)C(=O)N[C@@H](CC(=O)O)C(=O)NCC(=O)N[C@H](CO)C(=O)N[C@@H]([C@H](C)CC(=O)O)C(=O)N[C@@H](CC(=O)c2ccccc2N)C(=O)O[C@@H]1C	broth microdilution	BR-VRSA strain 880, Mueller-Hinton broth, Mg2+ 10 mg/L	16 h, with: Ca2+ 5 mM	–	MIC	0.25 µg/mL (≈ 0.154 µM)
